Results collected from several papers.
Each line is one published result; not all experiments were run side by side.
Organism: Acinetobacter baumannii

Compound | test | system | conditions | MIC
CC[C@H](C)[C@H](NC(=O)[C@@H](CCCNC(=N)N)NC(=O)[C@H](CCCNC(=N)N)NC(=O)CNC(=O)[C@H](Cc1c[nH]c2ccccc12)NC(=O)[C@H](CCCNC(=N)N)NC(=O)[C@@H]1CCCN1C(=O)[C@H](CCCNC(=N)N)NC(=O)[C@@H]1CCCN1C(=O)[C@H](CC(C)C)NC(=O)[C@H](Cc1ccc(O)cc1)NC(=O)[C@@H]1CCCN1C(=O)[C@@H]1CCCN1C(=O)[C@H](CCCCN)NC(=O)[C@H](CC(=O)O)NC(=O)[C@@H](N)C(C)C)C(=O)N[C@@H](Cc1ccc(O)cc1)C(=O)N[C@@H](CC(N)=O)C(=O)N[C@H](CCCNC(=N)N)C(N)=O | broth microdilution | DSM 30008 | 18 h, 37 °C, 25% MHB2 | 16 µg/mL
CC[C@H](C)[C@@H]1NC(=O)[C@@H](CC(C)C)NC(=O)[C@H](CCN)NC(=O)[C@@H](NC(=O)[C@@H](CO)NC(=O)[C@@H](NC(=O)[C@H](CCN)NC(=O)c2ccc(-c3ccccc3)cc2)[C@@H](C)O)CCNC(=O)[C@H](CC(C)C)NC(=O)[C@H](CCN)NC(=O)[C@H](CCN)NC1=O | broth microdilution | colistin-resistant isolates |  | 1 to 2 µg/mL
CN[C@H](CC(C)C)C(=O)N[C@H]1C(=O)N[C@@H](CC(N)=O)C(=O)N[C@H]2C(=O)N[C@H]3C(=O)N[C@H](C(=O)N[C@H](C(=O)N[C@@H](CCCNC(=N)N)C(N)=O)c4cc(O)cc(O)c4-c4cc3ccc4O)[C@H](O)c3ccc(c(Cl)c3)Oc3cc2cc(c3O[C@@H]2O[C@H](CO)[C@@H](O)[C@H](O)[C@H]2O[C@H]2C[C@](C)(NCc3ccc(OCc4cn(CC(=O)N[C@H](C(=O)N[C@@H](CCN)C(=O)N[C@H]5CCNC(=O)[C@H]([C@@H](C)O)NC(=O)[C@H](CCN)NC(=O)[C@H](CCN)NC(=O)[C@H](CC(C)C)NC(=O)[C@@H](CC(C)C)NC(=O)[C@H](CCN)NC5=O)[C@@H](C)O)nn4)c(OC)c3)[C@H](O)[C@H](C)O2)Oc2ccc(cc2Cl)[C@H]1O | broth microdilution | ATCC 17978, cation-adjusted Mueller-Hinton broth | 18 to 20 h, 37 °C, 0.002% polysorbate 80 | 128 µg/mL
CC[C@H](C)[C@H](NC(=O)CN)C(=O)NCC(=O)N[C@@H](C)C(=O)N[C@H](C(=O)N[C@@H](CC(C)C)C(=O)N[C@@H](CCCCN)C(=O)N[C@H](C(=O)N[C@@H](CC(C)C)C(=O)N[C@H](C(=O)N[C@H](C(=O)NCC(=O)N[C@@H](CC(C)C)C(=O)N1CCC[C@H]1C(=O)N[C@@H](C)C(=O)N[C@@H](CC(C)C)C(=O)N[C@H](C(=O)N[C@@H](CO)C(=O)N[C@@H](Cc1c[nH]c2ccccc12)C(=O)N[C@H](C(=O)N[C@@H](CCCCN)C(=O)N[C@@H](CCCNC(=N)N)C(=O)N[C@@H](CCCCN)C(=O)N[C@@H](CCCNC(=N)N)C(=O)N[C@@H](CCC(N)=O)C(=O)N[C@@H](CCC(N)=O)C(N)=O)[C@@H](C)CC)[C@@H](C)CC)[C@@H](C)O)[C@@H](C)O)C(C)C)C(C)C | CLSI broth microdilution | ATCC 19606 | 18 h, 37 °C | 2 µM
CCCCCCCC(=O)N[C@@H](CCN)C(=O)N[C@H](C(=O)N[C@@H](CCN)C(=O)N[C@H]1CCNC(=O)[C@H]([C@@H](C)O)NC(=O)[C@H](CCN)NC(=O)[C@H](CCN)NC(=O)[C@H](C)NC(=O)[C@@H](Cc2ccccc2)NC(=O)[C@H](CCN)NC1=O)[C@@H](C)O | CLSI broth microdilution | 248-01-C.248, CAMHB | 20 h, 37 °C | 0.5 µg/mL
CCCCCCCC(=O)N[C@@H](CCN)C(=O)N[C@H](C(=O)N[C@@H](CCN)C(=O)N[C@H]1CCNC(=O)[C@H]([C@@H](C)O)NC(=O)[C@H](CCN)NC(=O)[C@H](CCN)NC(=O)[C@H](CC(C)C)NC(=O)[C@@H](Cc2cccc(F)c2)NC(=O)[C@H](CCN)NC1=O)[C@@H](C)O | broth microdilution | colistin-resistant isolates |  | 4 to 8 µg/mL
CC[C@H](C)[C@H](N)C(=O)N[C@@H](CCCNC(=N)N)C(=O)N[C@H](C(=O)N[C@@H](Cc1c[nH]c2ccccc12)C(=O)N[C@@H](Cc1ccccc1)C(=O)N[C@H](C(=O)N[C@@H](CCCCN)C(=O)N[C@H](C(=O)N[C@@H](CCCNC(=N)N)C(=O)N[C@@H](CCCCN)C(=O)N[C@@H](CCSC)C(=O)N[C@@H](CCCCN)C(=O)N[C@@H](C)C(=O)N[C@H](C(=O)N[C@@H](Cc1ccc(O)cc1)C(=O)N[C@@H](Cc1c[nH]cn1)C(N)=O)[C@@H](C)CC)C(C)C)[C@@H](C)CC)C(C)C | broth dilution | ATCC 19606 |  | 6.3 µM
CCCCCCCC(=O)N[C@@H](CCN)C(=O)N[C@H](C(=O)N[C@@H](CCN)C(=O)N[C@H]1CCNC(=O)[C@H]([C@@H](C)O)NC(=O)[C@H](CCN)NC(=O)[C@H](CCN)NC(=O)[C@H](Cc2ccccc2)NC(=O)[C@@H](CCCCCC)NC(=O)[C@H](CCN)NC1=O)[C@@H](C)O | broth microdilution | colistin-resistant isolates |  | 0.5 to 1 µg/mL
CCCCCCCC(=O)N[C@@H](CCN)C(=O)N[C@H](C(=O)N[C@@H](CCN)C(=O)N[C@H]1CCNC(=O)[C@H]([C@@H](C)O)NC(=O)[C@H](CCN)NC(=O)[C@H](CCN)NC(=O)[C@H](CC(C)C)NC(=O)[C@@H](Cc2ccccc2)NC(=O)[C@H](C)NC1=O)[C@@H](C)O | CLSI broth microdilution | 5075, CAMHB | 20 h, 37 °C | > 512 µg/mL
CC[C@H](C)[C@H](NC(=O)[C@@H](CCCNC(=N)N)NC(=O)[C@H](CCCNC(=N)N)NC(=O)[C@@H]1CCCN1C(=O)[C@@H]1CCCN1C(=O)[C@H](Cc1ccccc1)NC(=O)[C@@H]1CCCN1C(=O)[C@H](CCCNC(=N)N)NC(=O)[C@@H]1CCCN1C(=O)[C@H](CC(C)C)NC(=O)[C@H](Cc1ccc(O)cc1)NC(=O)[C@@H]1CCCN1C(=O)[C@@H]1CCCN1C(=O)[C@H](CCCCN)NC(=O)[C@H](CC(=O)O)NC(=O)[C@@H](N)C(C)C)C(=O)N[C@@H](Cc1ccc(O)cc1)C(=O)N[C@@H](CC(N)=O)C(=O)N[C@H](CCCNC(=N)N)C(N)=O | broth microdilution | DSM 30008 | 18 h, 37 °C, 25% MHB2 | 16 µg/mL
CCCCCCCC(=O)N[C@@H](CCN)C(=O)N[C@H](C(=O)N[C@@H](CCN)C(=O)N[C@H]1CCNC(=O)[C@H](C)NC(=O)[C@H](CCN)NC(=O)[C@H](CCN)NC(=O)[C@H](CC(C)C)NC(=O)[C@@H](Cc2ccccc2)NC(=O)[C@H](CCN)NC1=O)[C@@H](C)O | broth microdilution | ATCC 19606 | 20 h, 37 °C | 1 µg/mL
CCn1c(-c2ccc(F)cc2)c(-c2ccc(F)cc2)n(Cc2ccccc2)c1=[Se] | broth microdilution | carbapenem-resistant | 24 h | > 40 µM
CC[C@H](C)[C@H](NC(=O)[C@@H](CCCNC(=N)N)NC(=O)[C@H](CCCNC(=N)N)NC(=O)[C@@H](NC(=O)[C@H](Cc1c[nH]c2ccccc12)NC(=O)[C@H](CCCNC(=N)N)NC(=O)[C@@H]1CCCN1C(=O)[C@H](CCCNC(=N)N)NC(=O)[C@@H]1CCCN1C(=O)[C@H](CC(C)C)NC(=O)[C@H](Cc1ccc(O)cc1)NC(=O)[C@@H]1CCCN1C(=O)[C@@H]1CCCN1C(=O)[C@H](CCCCN)NC(=O)[C@H](CC(=O)O)NC(=O)[C@@H](N)C(C)C)C(C)C)C(=O)N[C@@H](Cc1ccc(O)cc1)C(=O)N[C@@H](CC(N)=O)C(=O)N[C@H](CCCNC(=N)N)C(N)=O | broth microdilution | DSM 30008 | 18 h, 37 °C, 25% MHB2 | 16 µg/mL
CN[C@@H]1[C@H](O)[C@H](NC)[C@H]2O[C@]3(O)[C@H](O[C@@H]2[C@H]1O)O[C@H](C)C[C@H]3NC(=O)Cc1ccccc1 | microbial growth, broth dilution | ATCC19606 |  | > 200 µg/mL
CC(=CC(C)CCCCC(=O)O)C1OC2C=CC1OC(=O)C=CC=CC=CC1OC3CC1OC(C=CCC1OC(CC(O)C1C)C(O)C(O)C=CCCC=CC2)C3C (stereo not shown) | microbial growth | DSM30008 |  | > 20 µM
CC[C@H](C)[C@H](NC(=O)[C@H](CCCNC(=N)N)NC(=O)[C@H](Cc1c[nH]c2ccccc12)NC(=O)[C@H](Cc1c[nH]c2ccccc12)NC(=O)[C@H](CCCNC(=N)N)NC(=O)[C@@H](N)CCCNC(=N)N)C(=O)N[C@@H](Cc1c[nH]c2ccccc12)C(N)=O |  |  | together with: MgSO4 10 µM | 64 µg/mL
CCCCCCCC(=O)N[C@@H](CCN)C(=O)N[C@H](C(=O)N[C@@H](CCN)C(=O)N[C@H]1CCNC(=O)[C@H]([C@@H](C)O)NC(=O)[C@H](CCN)NC(=O)[C@H](CCN)NC(=O)[C@H](CC(C)C)NC(=O)[C@@H](Cc2cc(F)c(F)c(F)c2)NC(=O)[C@H](CCN)NC1=O)[C@@H](C)O | broth microdilution | ATCC 19606, colistin-susceptible |  | < 0.125 µg/mL
CCCCCCCCCCCCCCCCCCn1cc(CN(CCC(=O)NCCN(CCC(=O)NCCN(CCC(=O)NCCN(C)C)CCC(=O)NCCN(C)C)CCC(=O)NCCN(CCC(=O)NCCN(C)C)CCC(=O)NCCN(C)C)CCC(=O)NCCN(CCC(=O)NCCN(CCC(=O)NCCN(C)C)CCC(=O)NCCN(C)C)CCC(=O)NCCN(CCC(=O)NCCN(C)C)CCC(=O)NCCN(C)C)nn1 |  | ΔlpxC LPS-deficient |  | 6 µg/mL
CC[C@H](C)[C@H](NC(=O)[C@@H](CCCNC(=N)N)NC(=O)[C@H](CCCNC(=N)N)NC(=O)[C@@H]1CCCN1C(=O)[C@@H]1CCCN1C(=O)[C@H](CCCNC(=N)N)NC(=O)[C@@H]1CCCN1C(=O)[C@H](CCCNC(=N)N)NC(=O)[C@@H]1CCCN1C(=O)[C@H](Cc1ccccc1)NC(=O)[C@H](Cc1ccc(O)cc1)NC(=O)[C@@H]1CCCN1C(=O)[C@@H]1CCCN1C(=O)[C@H](CCCCN)NC(=O)[C@H](CC(=O)O)NC(=O)[C@@H](N)C(C)C)C(=O)N[C@@H](Cc1ccc(O)cc1)C(=O)N[C@@H](CC(N)=O)C(=O)N[C@H](CCCNC(=N)N)C(N)=O | broth microdilution | DSM 30008 | 18 h, 37 °C, 25% MHB2 | 128 µg/mL

A few entries again:
Compound | test | system | conditions | MIC
CCn1c(-c2ccc(F)cc2)c(-c2ccc(F)cc2)n(Cc2ccccc2)c1=[Se] | broth microdilution | carbapenem-resistant | 24 h | > 40 µM
